Results pooled from the literature.
Protocols differ between the studies behind these lines. Values joined by “and” are separate records of one study, mostly repeats; a detail may differ. ± gives the spread as reported.
uncharacterized protein: uncharacterized protein (Bos taurus, UniProt E1BM68)
Sequence of UniProt Q8N884 (whole entry, looked up): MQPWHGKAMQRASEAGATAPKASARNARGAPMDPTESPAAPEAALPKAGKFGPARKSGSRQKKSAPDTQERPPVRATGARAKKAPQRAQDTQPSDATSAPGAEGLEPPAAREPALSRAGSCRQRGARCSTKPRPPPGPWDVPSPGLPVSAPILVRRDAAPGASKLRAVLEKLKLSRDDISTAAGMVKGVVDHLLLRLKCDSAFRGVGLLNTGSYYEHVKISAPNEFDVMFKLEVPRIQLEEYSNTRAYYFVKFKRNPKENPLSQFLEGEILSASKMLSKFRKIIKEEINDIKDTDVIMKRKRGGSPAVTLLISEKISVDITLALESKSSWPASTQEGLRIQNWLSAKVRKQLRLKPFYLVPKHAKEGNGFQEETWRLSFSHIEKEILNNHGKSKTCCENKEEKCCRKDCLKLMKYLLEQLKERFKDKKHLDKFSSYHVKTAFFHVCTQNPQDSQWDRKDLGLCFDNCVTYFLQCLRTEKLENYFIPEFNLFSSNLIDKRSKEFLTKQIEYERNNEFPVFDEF
Sequence of UniProt P23204 (whole entry, looked up): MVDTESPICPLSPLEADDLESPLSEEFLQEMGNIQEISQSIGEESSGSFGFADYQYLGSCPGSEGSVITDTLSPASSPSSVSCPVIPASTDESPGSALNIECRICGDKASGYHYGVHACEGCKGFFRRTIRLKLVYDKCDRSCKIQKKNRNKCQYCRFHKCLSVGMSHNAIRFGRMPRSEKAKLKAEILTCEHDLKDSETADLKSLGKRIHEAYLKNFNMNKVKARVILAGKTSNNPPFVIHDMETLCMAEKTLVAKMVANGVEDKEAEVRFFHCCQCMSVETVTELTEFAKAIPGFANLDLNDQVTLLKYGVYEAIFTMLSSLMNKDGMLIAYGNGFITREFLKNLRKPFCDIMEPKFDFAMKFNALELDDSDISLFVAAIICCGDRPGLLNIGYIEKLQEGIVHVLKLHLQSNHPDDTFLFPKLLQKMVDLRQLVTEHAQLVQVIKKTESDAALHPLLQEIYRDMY
Sequence of UniProt P34995 (whole entry, unmodified, looked up): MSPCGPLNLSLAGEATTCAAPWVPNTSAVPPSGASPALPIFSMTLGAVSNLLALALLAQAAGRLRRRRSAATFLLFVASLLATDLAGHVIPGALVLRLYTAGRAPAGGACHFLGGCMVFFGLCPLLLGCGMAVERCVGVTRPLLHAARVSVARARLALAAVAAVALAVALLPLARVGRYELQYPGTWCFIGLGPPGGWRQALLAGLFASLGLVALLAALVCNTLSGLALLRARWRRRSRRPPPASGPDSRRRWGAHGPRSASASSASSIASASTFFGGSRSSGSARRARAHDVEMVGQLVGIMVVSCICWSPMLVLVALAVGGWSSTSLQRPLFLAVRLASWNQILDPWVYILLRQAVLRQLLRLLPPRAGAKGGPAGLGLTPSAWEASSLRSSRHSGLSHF
Sequence of UniProt Q9BQB4 (whole entry, looked up): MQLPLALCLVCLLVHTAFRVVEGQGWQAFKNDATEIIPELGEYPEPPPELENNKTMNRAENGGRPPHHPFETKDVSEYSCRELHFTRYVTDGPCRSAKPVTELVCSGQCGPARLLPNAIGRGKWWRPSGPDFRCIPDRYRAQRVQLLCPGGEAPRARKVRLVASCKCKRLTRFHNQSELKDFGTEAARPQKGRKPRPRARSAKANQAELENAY
Sequence of UniProt P46098 (whole entry, looked up): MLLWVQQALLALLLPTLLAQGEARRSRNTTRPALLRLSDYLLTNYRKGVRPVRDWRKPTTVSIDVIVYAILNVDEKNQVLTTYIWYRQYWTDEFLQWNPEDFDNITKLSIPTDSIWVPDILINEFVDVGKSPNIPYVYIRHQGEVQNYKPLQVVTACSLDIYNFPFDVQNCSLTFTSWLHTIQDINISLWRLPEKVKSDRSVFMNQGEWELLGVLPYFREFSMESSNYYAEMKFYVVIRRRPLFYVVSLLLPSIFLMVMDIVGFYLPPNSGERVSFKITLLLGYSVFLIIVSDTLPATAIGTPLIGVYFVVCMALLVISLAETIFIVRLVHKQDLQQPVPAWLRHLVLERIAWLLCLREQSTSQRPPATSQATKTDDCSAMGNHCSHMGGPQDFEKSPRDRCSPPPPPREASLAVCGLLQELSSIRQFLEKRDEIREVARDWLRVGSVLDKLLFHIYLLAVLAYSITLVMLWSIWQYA
Sequence of UniProt P04150 (whole entry, looked up): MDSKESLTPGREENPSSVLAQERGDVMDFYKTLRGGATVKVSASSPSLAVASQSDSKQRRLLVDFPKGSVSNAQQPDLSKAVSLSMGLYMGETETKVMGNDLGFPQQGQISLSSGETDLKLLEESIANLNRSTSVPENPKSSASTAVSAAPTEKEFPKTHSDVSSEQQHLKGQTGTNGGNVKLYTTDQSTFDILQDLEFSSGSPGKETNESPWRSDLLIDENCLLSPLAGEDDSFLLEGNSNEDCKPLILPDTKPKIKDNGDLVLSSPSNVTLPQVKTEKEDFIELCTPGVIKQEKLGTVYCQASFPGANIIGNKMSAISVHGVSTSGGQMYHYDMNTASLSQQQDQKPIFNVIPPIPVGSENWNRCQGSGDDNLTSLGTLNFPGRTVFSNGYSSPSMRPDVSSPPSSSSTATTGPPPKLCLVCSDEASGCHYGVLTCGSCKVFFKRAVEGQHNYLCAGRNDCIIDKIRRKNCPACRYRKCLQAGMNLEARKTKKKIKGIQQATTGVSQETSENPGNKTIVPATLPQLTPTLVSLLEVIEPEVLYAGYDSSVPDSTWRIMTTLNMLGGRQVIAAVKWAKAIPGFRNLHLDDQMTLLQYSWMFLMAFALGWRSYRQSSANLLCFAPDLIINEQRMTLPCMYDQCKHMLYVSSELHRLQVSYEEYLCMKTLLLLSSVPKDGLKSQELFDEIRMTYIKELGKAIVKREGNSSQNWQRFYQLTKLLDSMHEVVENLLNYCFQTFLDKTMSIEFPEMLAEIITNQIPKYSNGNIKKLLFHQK
Sequence of UniProt Q08499 (whole entry, looked up): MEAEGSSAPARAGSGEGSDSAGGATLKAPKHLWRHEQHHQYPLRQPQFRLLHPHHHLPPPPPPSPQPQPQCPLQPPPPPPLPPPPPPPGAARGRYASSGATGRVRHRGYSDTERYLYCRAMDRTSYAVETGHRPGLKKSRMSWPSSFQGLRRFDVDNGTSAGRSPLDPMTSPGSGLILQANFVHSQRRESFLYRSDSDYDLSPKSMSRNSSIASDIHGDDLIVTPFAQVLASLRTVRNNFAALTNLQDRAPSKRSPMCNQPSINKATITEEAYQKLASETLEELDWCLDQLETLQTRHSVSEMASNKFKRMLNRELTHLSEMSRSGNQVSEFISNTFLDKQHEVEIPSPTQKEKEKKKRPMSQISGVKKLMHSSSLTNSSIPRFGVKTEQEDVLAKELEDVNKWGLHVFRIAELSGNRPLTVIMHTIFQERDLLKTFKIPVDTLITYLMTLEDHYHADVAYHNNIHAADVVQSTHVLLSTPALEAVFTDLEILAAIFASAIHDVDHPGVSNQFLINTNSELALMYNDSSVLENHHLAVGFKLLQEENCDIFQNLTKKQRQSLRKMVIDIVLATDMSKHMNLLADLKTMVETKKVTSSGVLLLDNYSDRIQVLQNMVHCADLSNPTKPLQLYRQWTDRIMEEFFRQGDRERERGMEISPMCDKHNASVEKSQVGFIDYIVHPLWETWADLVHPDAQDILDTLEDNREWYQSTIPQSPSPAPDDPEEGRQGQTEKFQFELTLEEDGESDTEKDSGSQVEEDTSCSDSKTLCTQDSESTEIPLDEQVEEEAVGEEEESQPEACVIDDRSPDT
Sequence of UniProt Q13258 (whole entry, looked up): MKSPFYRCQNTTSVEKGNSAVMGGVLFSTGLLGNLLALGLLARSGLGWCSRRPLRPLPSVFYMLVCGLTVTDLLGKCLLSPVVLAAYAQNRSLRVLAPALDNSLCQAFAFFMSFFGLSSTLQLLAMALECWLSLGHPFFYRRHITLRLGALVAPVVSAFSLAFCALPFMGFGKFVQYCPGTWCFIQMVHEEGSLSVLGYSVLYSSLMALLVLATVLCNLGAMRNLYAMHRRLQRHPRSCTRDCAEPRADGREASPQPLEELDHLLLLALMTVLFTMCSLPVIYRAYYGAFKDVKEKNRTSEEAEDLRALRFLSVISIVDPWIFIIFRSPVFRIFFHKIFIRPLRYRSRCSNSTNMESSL
Sequence of UniProt P25929 (whole entry, looked up): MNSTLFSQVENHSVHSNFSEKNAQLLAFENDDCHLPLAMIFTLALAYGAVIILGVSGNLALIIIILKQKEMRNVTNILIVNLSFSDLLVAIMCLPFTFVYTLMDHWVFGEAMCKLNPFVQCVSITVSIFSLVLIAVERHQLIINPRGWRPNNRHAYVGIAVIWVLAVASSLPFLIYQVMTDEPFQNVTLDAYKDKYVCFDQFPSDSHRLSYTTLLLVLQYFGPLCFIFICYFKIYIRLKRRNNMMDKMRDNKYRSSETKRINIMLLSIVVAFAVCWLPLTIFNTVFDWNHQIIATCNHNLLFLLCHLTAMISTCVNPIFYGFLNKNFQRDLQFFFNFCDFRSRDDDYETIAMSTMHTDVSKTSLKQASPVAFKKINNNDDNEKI

CCOC(=O)c1cc(C(=O)OCC)c(-n2nc(C)cc2C)nc1O  EC50 (NPY1R (Homo sapiens, UniProt P25929); cAMP accumulation, agonist; SK-N-MC): 63 µM
CCO[C@H](COc1ccc(C(F)(F)F)cc1)CSc1ccc(OCC(=O)O)c(C)c1  EC50 (Peroxisome proliferator-activated receptor delta (Rattus norvegicus, UniProt Q62879); reporter gene, agonist, luciferase reporter; rat; serum-free): 0.9 µM
C=CCc1ccc(OC)c(OC)c1  EC50 (Olfactory receptor (Mus musculus, UniProt Q8VGQ8); cAMP, agonist; HEK293 transfected with Olfactory receptor): 279 ± 36.7 µM
CCCCC[C@H](O)/C=C/[C@H]1C(=O)C[C@H](O)[C@@H]1C/C=C\CCCC(=O)O  EC50 (PTGDR (Homo sapiens, UniProt Q13258); agonist): 0.0501 µM
Cc1cnccn1  EC50 (uncharacterized protein; cAMP level, agonist, cAMP luminescence; HEK293 cells): > 1500 µM
Cc1nc(-c2ccc(C(F)(F)F)c(F)c2)nc(Nc2ccc(CC(=O)O)cc2)c1C  EC50 (PDE4D (Homo sapiens, UniProt Q08499); reporter gene, dual luciferase): 78.3 ± 4.49 µM
O=C(Nc1ccn(Cc2ccc(O)cc2C(F)(F)F)n1)c1c(F)cccc1F  EC50 (HTR3A (Homo sapiens, UniProt P46098); ion channel activity, agonist; cells overexpressing HTR3A; human receptor): > 10 µM
COc1c([C@H]2[C@H](C(=O)Nc3ccnc(C(N)=O)c3)O[C@@](C)(C(F)(F)F)[C@H]2C)ccc(F)c1F  EC50 (NR3C1 (Homo sapiens, UniProt P04150); agonist): ≥ 30 µM
CCc1nccnc1C(C)=O  EC50 (uncharacterized protein; cAMP level, agonist, cAMP luminescence; HEK293 cells): 473 ± 41.6 µM
CO[C@H]1O[C@H](COS(=O)(=O)O)[C@@H](O[C@@H]2O[C@@H](C(=O)O)[C@@H](O[C@H]3O[C@H](COS(=O)(=O)O)[C@@H](O[C@@H]4O[C@H](C(=O)O)[C@@H](O[C@H]5O[C@H](COS(=O)(=O)O)[C@@H](O)[C@H](O)[C@H]5NS(=O)(=O)O)[C@H](O)[C@H]4O)[C@H](OS(=O)(=O)O)[C@H]3NS(=O)(=O)O)[C@H](O)[C@H]2OS(=O)(=O)O)[C@H](O)[C@H]1NS(=O)(=O)O  EC50 (Sclerostin (SOST, Homo sapiens, UniProt Q9BQB4); fluorescence polarization competition; corrected value, added: TAMRA-labelled probe): 1610 ± 860 µM
CCc1ncc(C)nc1CC  EC50 (uncharacterized protein; cAMP level, agonist, cAMP luminescence; HEK293 cells): 23.5 ± 20.7 µM
CCCCC[C@H](O)/C=C/[C@H]1[C@H](O)CC(=O)[C@@H]1C/C=C\CCCC(=O)O  EC50 (PTGER1 (Homo sapiens, UniProt P34995, F334A/P39A); IP1 accumulation, agonist; AD293): 0.0652 µM
Cc1nn(-c2nc3ccccc3[nH]2)c(O)c1C(c1ccccn1)c1c(C)nn(-c2nc3ccccc3[nH]2)c1O  EC50 (Cyclic GMP-AMP synthase, catalytic domain; with DNA (CGAS, Homo sapiens, UniProt Q8N884); liquid-liquid phase separation, inhibitor): 6.72 µM and 6.74 µM
CSc1ccc(C(=O)/C=C/c2cc(C)c(OC(C)(C)C(=O)O)c(C)c2)cc1  EC50 (Ppara (Mus musculus, UniProt P23204); receptor activation, agonist, luciferase reporter; serum-free, species mouse): 0.3 µM

For quick reference, copied from above:
CCc1nccnc1C(C)=O  EC50 (uncharacterized protein; cAMP level, agonist, cAMP luminescence; HEK293 cells): 473 ± 41.6 µM
CO[C@H]1O[C@H](COS(=O)(=O)O)[C@@H](O[C@@H]2O[C@@H](C(=O)O)[C@@H](O[C@H]3O[C@H](COS(=O)(=O)O)[C@@H](O[C@@H]4O[C@H](C(=O)O)[C@@H](O[C@H]5O[C@H](COS(=O)(=O)O)[C@@H](O)[C@H](O)[C@H]5NS(=O)(=O)O)[C@H](O)[C@H]4O)[C@H](OS(=O)(=O)O)[C@H]3NS(=O)(=O)O)[C@H](O)[C@H]2OS(=O)(=O)O)[C@H](O)[C@H]1NS(=O)(=O)O  EC50 (Sclerostin (SOST, Homo sapiens, UniProt Q9BQB4); fluorescence polarization competition; corrected value, added: TAMRA-labelled probe): 1610 ± 860 µM
